Measurements from different studies.
Numbered parts are unrelated; each lists some results of a single study.

Sample 1
Target: Prothrombin, mature alpha-thrombin (F2, Homo sapiens, UniProt P00734)
Method: aptamer microarray, sandwich
Form: DNA with 2'F-ANA
Medium: in vitro
Tested at: 200 nM
Setting: whole 15-mer aptamer, many near background
With: Cy3 exosite-II aptamer, 400 nM
Direction: higher = stronger binding
Strand: GGTTGGTGTGGTTGG
`2'F-ANA at 2 5 6 9 11 13 14` — result for “mean fluorescence intensity”: 56.6 a.u.
`2'F-ANA at 3 4 7 8 9 10 13 14` — result for “mean fluorescence intensity”: 272 a.u.
`2'F-ANA at 2 3 4 6 7 8 9 13 15` — result for “mean fluorescence intensity”: 362 a.u.
`2'F-ANA at 2 3 4 6 9` — result for “mean fluorescence intensity”: 517 a.u.
`2'F-ANA at 3 5 6 7 8 9 11 14` — result for “mean fluorescence intensity”: 51.9 a.u.
`2'F-ANA at 1 6 7 8 9 10 12 13 15`: “mean fluorescence intensity” 71.7 a.u.
`2'F-ANA at 3 4 6 7 10 11 12 13 15`: “mean fluorescence intensity” 207 a.u.
For `2'F-ANA at 1 2 5 7 8 9 10 11 15`, “mean fluorescence intensity” read 73.5 a.u.
Under “mean fluorescence intensity”, `2'F-ANA at 2 4 5 6 7 8 11 12 13` is recorded as 138 a.u.
`2'F-ANA at 2 3 4 5 7 8 9 12`: “mean fluorescence intensity” 181 a.u.
For `2'F-ANA at 3 4 5 9 10 12 13 14`, “mean fluorescence intensity” read 50.1 a.u.
`2'F-ANA at 2 3 4 5 7 9 10 11 13 14`: “mean fluorescence intensity” 51.7 a.u.
`2'F-ANA at 5 7 9 12` — result for “mean fluorescence intensity”: 198 a.u.

Sample 2
Target: RING finger protein unkempt homolog, zinc fingers 1-6, GST-SBP tag (UNK, Homo sapiens, UniProt Q9C0B0, residues 30-357)
Sequence of UniProt Q9C0B0 (30-357, looked up): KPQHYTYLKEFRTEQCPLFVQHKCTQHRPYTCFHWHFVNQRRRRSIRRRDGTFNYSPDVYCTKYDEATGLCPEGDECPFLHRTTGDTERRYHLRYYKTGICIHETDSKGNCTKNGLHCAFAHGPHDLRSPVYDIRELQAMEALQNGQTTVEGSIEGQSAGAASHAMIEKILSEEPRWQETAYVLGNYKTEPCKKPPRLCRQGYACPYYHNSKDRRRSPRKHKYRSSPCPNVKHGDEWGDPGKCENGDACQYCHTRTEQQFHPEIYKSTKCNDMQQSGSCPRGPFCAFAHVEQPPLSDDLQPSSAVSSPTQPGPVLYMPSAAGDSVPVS
Method: RNA Bind-n-Seq
Form: RNA
Medium: in vitro
Tested at: not given
Setting: RNA with constant flanks, human and mouse sites, ends assumed
Relative to: input RNA pool
Direction: higher = stronger binding
`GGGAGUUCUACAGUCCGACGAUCUUAAUUAAAGAAACAAAGCUCUCCACUGAGCCAAGUCCAGAGUUCUCUAAUUAUUCAGAAAUAGCAAAAUUUGAGAAGUCGGUGCCUGAUCACUGUGAGCUCGUGGAUGAUUCCUCACCCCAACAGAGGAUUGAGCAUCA` gave a bound/input enrichment of 0.732 ratio.
For `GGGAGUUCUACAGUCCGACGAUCGAACUGGUGGACUACAUUACAAUAAGCAGAGGCUGUUUGACAGAGCAGACUUACCCUGAAGUAGUUAGAAUGGUAUCUUGCAAUAUAUUCAGAACUCUCCCUCCUAGUGACAGCAAUGAACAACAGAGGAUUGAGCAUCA`, the bound/input enrichment was 0.66 ratio.
`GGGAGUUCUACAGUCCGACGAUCAACAAUGCAUGUAAGUCUGACAUCAUGAUGUCCAUCCGGCAAAGAAGAGAAAUAAGAGCCACAGAAGUUUCUGAAGACUUUCCAGCCCAAGAAGAAAAUGUGAAGUUGGAAAAUAAAUUGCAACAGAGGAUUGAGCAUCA` has a bound/input enrichment of 0.173 ratio.
With `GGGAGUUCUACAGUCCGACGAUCGCAUGGAGCAUGAAUUCUUACUAAUAGAGACUGUAGUUUUUUUCUUGUCUUUGGUAAAUAUAUAAAAGACCUUAAUUUUUCUUUUUUAAUGAAUGGAGAAAACAUGAGAAAACCAGAUGGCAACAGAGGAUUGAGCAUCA` the bound/input enrichment was 1.02 ratio.
`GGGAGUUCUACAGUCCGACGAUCGCCCUCAAUUUUUCUGUGUUCUACUAUGAGAUCCAGAAUGCACCAGAGCAAGCCUGCCUCUUAGCCAAACAAGCCUUCGAUGAUGCUAUAGCUGAGCUGGACACAUUAAACGAGGAUUCCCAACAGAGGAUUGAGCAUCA` has a bound/input enrichment of 0.28 ratio.
With `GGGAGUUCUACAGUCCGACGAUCAUUCUCAAUGCCACCCAGGCAGAAAGCAAAGUGUUCUACUUAAAAAUGAAAGGAGACUACUUUAGGUAUCUUUCUGAAGUUGCAUCCGGAGAAAAUAAACAAACCACGGUGUCCAACUCCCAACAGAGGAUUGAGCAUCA` the bound/input enrichment was 0.126 ratio.
With `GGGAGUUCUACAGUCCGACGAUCAACCCAAGUAUUUUUAUGUAAAAAGAUUUCAAUUUAGAAUACUUCAUUUUUGAGAUGGAGUUUAGAAUAUUUCAUUUUGAAAUGGAACGAAAGGGUUAGGUUUUGAUGUAAAAGACAGGACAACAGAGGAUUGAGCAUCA` the bound/input enrichment was 2.15 ratio.
`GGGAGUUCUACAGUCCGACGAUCAAAUGACCUUUAACUUUUCUAAAAAUGUGAAGUUUUGUACUUACAUAUCAUCUAAAGUAUUAUAGCAUUUUUAAGUGUACUUAGUUUGAUGCCACUUUUAGUGUUUUGUUGCUUUUGUCUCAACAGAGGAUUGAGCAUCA` has a bound/input enrichment of 2.82 ratio.

Sample 3
Target: Ras GTPase-activating protein-binding protein 1, C-terminal RGG region (G3BP1, Homo sapiens, UniProt Q13283)
Sequence of UniProt Q13283 (whole entry, looked up): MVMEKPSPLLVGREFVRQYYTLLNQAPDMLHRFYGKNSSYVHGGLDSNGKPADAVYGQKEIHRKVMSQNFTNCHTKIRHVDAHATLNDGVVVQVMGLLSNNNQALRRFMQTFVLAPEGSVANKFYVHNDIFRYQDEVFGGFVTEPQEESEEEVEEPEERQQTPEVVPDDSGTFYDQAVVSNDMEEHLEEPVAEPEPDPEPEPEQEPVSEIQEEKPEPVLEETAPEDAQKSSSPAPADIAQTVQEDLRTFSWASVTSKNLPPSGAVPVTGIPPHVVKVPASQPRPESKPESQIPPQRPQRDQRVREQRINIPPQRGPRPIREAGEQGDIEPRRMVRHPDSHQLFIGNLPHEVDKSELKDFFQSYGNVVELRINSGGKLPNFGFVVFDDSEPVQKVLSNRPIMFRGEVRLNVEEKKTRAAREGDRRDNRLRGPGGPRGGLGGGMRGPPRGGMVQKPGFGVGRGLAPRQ
Method: RNA Bind-n-Seq
Form: RNA
Medium: in vitro
Tested at: 1 µM
Setting: whole 134-nt RNA, ends assumed
With: 150 mM KCl
Relative to: input library
Direction: higher = stronger binding
`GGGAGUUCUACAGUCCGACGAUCUGGCCCUGGUGGCAUGCGGGGAGGAAGAGGUGGCCUCAUGGAUCGUGGUGGUCCCGGUGGAAUGUUCAGAGGUGGCCGUGGUGGAGACCGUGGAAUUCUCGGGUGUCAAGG` gave a log2 enrichment of 2.96.
`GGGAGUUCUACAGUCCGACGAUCCAAGUCCUGUGCUACACAUCGUAUGUACCGAAUCGGGAAAAAGGGUUUGGGUGGGAAAGUAUUAUGUUACGCCGUUCGGAUCUGCACUUCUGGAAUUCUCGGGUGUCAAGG` gave a log2 enrichment of 2.01.
For `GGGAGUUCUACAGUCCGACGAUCGUCCUGUGCUACACAUCGUAUGUACCGAAUCGGGGAAAAAGGGGAAAAAGGAAAAAGGAAAGUAUUAUGUUACGCCGUUCGGAUCUGCACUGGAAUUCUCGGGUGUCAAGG`, the log2 enrichment was -1.14.
For `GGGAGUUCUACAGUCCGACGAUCGUCCUGUGCUACACAUCGUAUGUACCGAAUCGGCCCCCCGGGCCCCCCGGCCCCCCGGAAAGUAUUAUGUUACGCCGUUCGGAUCUGCACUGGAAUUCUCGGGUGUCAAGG`, the log2 enrichment was -0.723.
With `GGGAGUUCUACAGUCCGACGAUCCACAGACAACACGCGCCCACACAGACACAGAGGGAAGGGGUUGGGAUGGGGACAGGGUGCACAGCAGGGCGGGGUAGGACCCCAGCCCCUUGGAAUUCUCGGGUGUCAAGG` the log2 enrichment was -0.174.
The log2 enrichment of `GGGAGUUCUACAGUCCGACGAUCUCCUCAAGUCCUGUGCUACACAUCGUAUGUACCGAAUCGGGUGGUGGGGUGGAAAGUAUUAUGUUACGCCGUUCGGAUCUGCACUUCCAGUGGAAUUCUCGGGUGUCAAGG` is reported as 0.0808.
`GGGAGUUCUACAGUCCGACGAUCAAGUCCUGUGCUACACAUCGUAUGUACCGAAUCGGGUUUGGGUUUGGGAAAAAGGGAAAGUAUUAUGUUACGCCGUUCGGAUCUGCACUUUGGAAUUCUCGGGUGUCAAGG` has a log2 enrichment of 1.3.
`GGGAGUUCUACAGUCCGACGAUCGUCCUGUGCUACACAUCGUAUGUACCGAAUCGGGGUUUUUUUGGGGUUUGGGGUGGGGAAAGUAUUAUGUUACGCCGUUCGGAUCUGCACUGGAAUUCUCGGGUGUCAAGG` gave a log2 enrichment of 1.99.
`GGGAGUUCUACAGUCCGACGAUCAGUCCUGUGCUACACAUCGUAUGUACCGAAUCGGGUUUUUGGUUUUUGGGUUUUUGGAAAGUAUUAUGUUACGCCGUUCGGAUCUGCACUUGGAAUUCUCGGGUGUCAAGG` gave a log2 enrichment of -1.28.

Further values, each from its own experiment
For `PhoQ, residues 284 288 289 292 302 303 TLSLKA`, the fold induction was 4.03 (PhoP, residues 12 14 15 18 19 GHCSL (Escherichia coli, UniProt P23836); Sort-seq, item: YFP reporter; E. coli; PhoQ-PhoP variant library, with: 10 µM Mg2+; relative to: high Mg2+ state, higher = stronger signaling).

Repeated from above (sample 1):
`2'F-ANA at 3 5 6 7 8 9 11 14` — result for “mean fluorescence intensity”: 51.9 a.u.
`2'F-ANA at 1 6 7 8 9 10 12 13 15`: “mean fluorescence intensity” 71.7 a.u.
`2'F-ANA at 3 4 6 7 10 11 12 13 15`: “mean fluorescence intensity” 207 a.u.
For `2'F-ANA at 1 2 5 7 8 9 10 11 15`, “mean fluorescence intensity” read 73.5 a.u.
Under “mean fluorescence intensity”, `2'F-ANA at 2 4 5 6 7 8 11 12 13` is recorded as 138 a.u.
